Experimental data of several laboratories.
Organism: Escherichia coli

With `CO[C@H]1/C=C/O[C@@]2(C)Oc3c(C)c(O)c4c(O)c(c(/C=N/N5CCN(C)CC5)c(O)c4c3C2=O)NC(=O)/C(C)=C\C=C\[C@H](C)[C@H](O)[C@@H](C)[C@@H](O)[C@@H](C)[C@H](OC(C)=O)[C@@H]1C` the MIC was 16 µM (broth microdilution OD600; Mueller-Hinton broth; 24 h, 37 °C, together with: 4.5 mM KCl).
`CC(C)Oc1c(NC(=O)c2ccc(NC(=O)[C@H](CC(N)=O)NC(=O)c3ccc(NC(=O)c4ccc(C#N)cc4)cc3)cc2)ccc(C(=O)N/N=C/c2ccc(C(=O)O)s2)c1O` has an MIC of 0.03 µg/mL (BW25113; 18 h, 37 °C, irradiated at 365 nm, photostationary state).
`CO[C@H]1/C=C/O[C@@]2(C)Oc3c(C)c(O)c4c(O)c(c(/C=N/Nc5c(F)c(F)cc(F)c5F)c(O)c4c3C2=O)NC(=O)/C(C)=C/C=C/[C@H](C)[C@H](O)[C@@H](C)[C@@H](O)[C@@H](C)[C@H](OC(C)=O)[C@H]1C` gave an MIC of 20 µM (ATCC 25922).
For `N[C@@H](C(=O)N[C@@H]1C(=O)N2C(C(=O)O)=C(Cl)CS[C@H]12)c1ccccc1`, the MIC was 2 µg/mL (broth microdilution; 18 h).
For `CC1(C)S[C@@H]2[C@H](NC(=O)[C@H](N)c3ccc(O)cc3)C(=O)N2[C@H]1C(=O)O`, the MIC was 10 µg/mL (broth microdilution; MTCC 405).
With `CO[C@H]1C[C@H](O[C@H]2[C@H](C)[C@@H](O[C@@H]3O[C@H](C)C[C@H](N(C)C)[C@H]3OC(C)=O)[C@@H](C)C[C@@]3(CO3)C(=O)[C@H](C)[C@@H](OC(C)=O)[C@@H](C)[C@@H](C)OC(=O)[C@@H]2C)O[C@@H](C)[C@@H]1OC(C)=O` the MIC was 640 µM (ATCC 25922).
For `CO/N=C(\C(=O)N[C@@H]1C(=O)N2C(C(=O)[O-])=C(C[N+]3(C)CCCC3)CS[C@H]12)c1csc(N)n1`, the MIC was 0.03 µg/mL (broth microdilution; ATCC 25922; 5% CO2).
For `CC1(C)S[C@@H]2[C@H](NC(=O)Cc3ccccc3)C(=O)N2[C@H]1C(=O)O`, the MIC was 32 µg/mL (broth microdilution; 18 h).
The MIC of `Oc1c(Br)cc(Br)c2nc3ccccc3nc12` is reported as greater than 100 µM.
`Cc1c(CN(C)C(=O)/C=C/c2cnc3c(c2)CC(CCN)C(=O)N3)oc2ccccc12.Cl` (centres unmarked) gave an MIC of 2 µg/mL (broth microdilution; AR-0349).
The MIC of `CC1(C)S[C@@H]2[C@H](NC(=O)C(C(=O)O)c3ccccc3)C(=O)N2[C@H]1C(=O)O` (some centres unmarked) is reported as 6.25 µg/mL (broth microdilution; BW25113 wild type; 18 h).
With `N=C(N)c1ccc(OCc2ccc3ccc(COc4ccc(C(=N)N)cc4)cc3c2)cc1` the MIC was 200 µg/mL (BW25113; compound alone).
With `CC(C)Oc1c(NC(=O)c2ccc(N3C(=O)C[C@H](NC(=O)c4cc(F)c(/N=N/c5c(F)cccc5F)c(F)c4)C3=O)cc2)ccc(C(=O)N/N=C/c2c(Cl)cncc2Cl)c1O` the MIC was greater than 6.4 µg/mL (BW25113; after 1 h irradiation at 450 nm).
The MIC of `N#Cc1ccc2[nH]c(CNCC34CC5CC(CC(C5)C3)C4)nc2c1` is reported as greater than 128 µg/mL (ATCC 25922).
For `NC[C@H]1O[C@H](O[C@H]2[C@H](O)[C@@H](O[C@H]3O[C@H](CO)[C@@H](O)[C@H](N)[C@H]3O)[C@H](N)C[C@@H]2N)[C@H](O)[C@@H](O)[C@@H]1O`, the MIC was 4 µg/mL (broth microdilution; ATCC 25922; 16 h, 37 °C, cation-adjusted Mueller-Hinton broth).
`N=C(N)c1ccc(OCCCCCCCOc2ccc(C(=N)N)cc2)cc1` gave an MIC of 200 µg/mL (BW25113; compound alone).
For `CCCCCCCCCCCC[N+](C)(C)Cc1ccccc1.[Br-]`, the MIC was greater than 640 µM (two-fold serial dilution; ATCC 8739; dark or light not distinguished).
With `CC(=O)NC[C@H]1CN(c2ccc(N3CCN(C(=O)CO)CC3)c(F)c2)C(=O)O1` the MIC was 5 µM (broth microdilution; compound alone).
With `N=C(N)c1ccc(OCCCOc2ccc(C(=N)N)cc2)cc1` the MIC was 200 µg/mL (BW25113; compound alone, together with: erythromycin checkerboard).
For `C=C[C@]1(C)C[C@@H](OC(=O)CS[C@@H]2CC[C@@H](N)C[C@H]2O)[C@]2(C)[C@H](C)CC[C@]3(CCC(=O)[C@H]32)[C@@H](C)[C@@H]1O`, the MIC was greater than 40 µM (ATCC 25922).
`O=C(Cc1ccccc1)N[C@@H]1C(=O)N2C(C(=O)O)=C(CSc3cccc4cccnc34)C[S+]([O-])[C@H]12` (some centres unmarked) gave an MIC of greater than 128 µg/mL (25922).
`CN(C)[C@@H]1C(O)=C(C(N)=O)C(=O)[C@@]2(O)C(O)=C3C(=O)c4c(O)cccc4[C@@](C)(O)[C@H]3C[C@@H]12` gave an MIC of 1 µg/mL (broth microdilution; 18 h).
For `COC(=O)[C@H]1[C@H]2C[C@@H]3c4[nH]c5cc(OC)ccc5c4CCN3C[C@H]2C[C@@H](OC(=O)c2cc(OC)c(OC)c(OC)c2)[C@@H]1OC`, the MIC was greater than 128 µM (tetracycline-resistant (pBR322)).
The MIC of `COc1c(NC(=O)c2ccc(NC(=O)c3ccc(NC(=O)[C@H](CC#N)NC(=O)c4ccc(NC(=O)/C(C)=C/c5ccc(O)cc5)cc4)cc3)c(OC)c2O)ccc(C(=O)O)c1O` is reported as less than 0.03 µg/mL (BW25113 wild type).
`CC[C@H]1OC(=O)[C@H](C)[C@@H](O[C@H]2C[C@@](C)(OC)[C@@H](O)[C@H](C)O2)[C@H](C)[C@@H](O[C@@H]2O[C@H](C)C[C@H](N(C)C)[C@H]2O)[C@](C)(O)C[C@@H](C)/C(=N\OCOCCOC)[C@H](C)[C@@H](O)[C@]1(C)O` has an MIC of 160 µM (ATCC 25922).
The MIC of `C[C@@H]1O[C@@H]1P(=O)(O)O` is reported as 1 µg/mL (broth microdilution; ATCC 25922; ambient air).
For `C[C@H]1COc2c(N3CCN(C)CC3)c(F)cc3c(=O)c(C(=O)O)cn1c23`, the MIC was 0.0313 µg/mL (broth microdilution; 18 h).
`CC[C@H](C)[C@H](NC(=O)[C@H](CCCNC(=N)N)NC(=O)[C@H](CCCNC(=N)N)NC(=O)[C@@H]1CCCN1C(=O)[C@@H]1CCCN1C(=O)[C@H](CCCNC(=N)N)NC(=O)[C@@H]1CCCN1C(=O)[C@H](CCCNC(=N)N)NC(=O)[C@@H]1CCCN1C(=O)[C@H](CCCNC(=N)N)NC(=O)[C@H](Cc1ccc(O)cc1)NC(=O)[C@@H]1CCCN1C(=O)[C@H](CCCCN)NC(=O)[C@H](CCCCN)NC(=O)[C@H](CC(=O)O)NC(=O)[C@@H](N)C(C)C)C(=O)N[C@@H](Cc1ccc(O)cc1)C(=O)N[C@@H](CC(N)=O)C(=O)N[C@@H](CCCNC(=N)N)C(N)=O` has an MIC of 2 µg/mL (broth microdilution; MRE600; 16 h, 37 °C, 25% Mueller-Hinton broth).
`N=C(N)c1ccccc1OCc1ccc(COc2ccccc2C(=N)N)cc1` gave an MIC of greater than 200 µg/mL (BW25113; compound alone, rifampicin checkerboard).
`CC1(C)S[C@@H]2[C@H](NC(=O)[C@H](N)c3ccc(O)cc3)C(=O)N2[C@H]1C(=O)O` has an MIC of 32 µg/mL (broth microdilution).
For `N=C(N)c1ccc(OCc2cccc(COc3ccc(C(=N)N)cc3)c2)cc1`, the MIC was 12.5 µg/mL (552100; in combination, checkerboard, together with: rifampicin).
The MIC of `CCCN1C[C@H](C)[C@@H](O)[C@](C)(O)[C@@H](CC)OC(=O)[C@H](C)[C@@H](O[C@H]2O[C@@H](C)C[C@@H](N(C)C)[C@@H]2O)[C@H](C)[C@@H](O[C@@H]2C[C@](C)(OC)[C@H](O)[C@@H](C)O2)[C@](C)(O)C[C@H]1C` is reported as 10 µM (ATCC 25922).
`CN(C)c1ccc2nc3ccc(=[N+](C)C)cc-3sc2c1` gave an MIC of greater than 128 µM (ATCC BAA-196, resistant; 18 h, 37 °C, LED light 10 min, 1.57 mW).
For `CC[C@H](C)[C@H](NC(=O)CN)C(=O)N[C@@H](CC(C)C)C(=O)N[C@@H](CC(=O)O)C(=O)N[C@@H](C)C(=O)N[C@H](C(=O)N[C@@H](CCCCN)C(=O)N[C@@H](C)C(=O)N[C@H](C(=O)N[C@@H](C)C(=O)N[C@@H](CCCCN)C(=O)N[C@@H](C)C(=O)N[C@@H](C)C(=O)NCC(N)=O)[C@@H](C)CC)[C@@H](C)CC`, the MIC was 128 µg/mL (ATCC 25922, Mueller-Hinton broth; 12 h, 37 °C).
For `CCCCCCCCCCCCCCCC[N+](C)(C)C`, the MIC was roughly 200 µM (bacterial growth).
`CC[C@H](C)CCCCC(=O)N[C@@H](CCN)C(=O)N[C@H](C(=O)N[C@@H](CCN)C(=O)N[C@H]1CCNC(=O)[C@H]([C@@H](C)O)NC(=O)[C@H](CCN)NC(=O)[C@H](CCN)NC(=O)[C@H](CC(C)C)NC(=O)[C@@H](CC(C)C)NC(=O)[C@H](CCN)NC1=O)[C@@H](C)O` has an MIC of greater than 14 µM (ATCC 25922; together with: LPS 1 mg/mL).
With `CC(C)Oc1c(NC(=O)c2ccc(NC(=O)[C@H](CC(N)=O)NC(=O)c3cc(F)c(/N=N/c4c(F)cccc4F)c(F)c3)cc2)ccc(C(=O)N/N=C/c2ccc(C(=O)O)s2)c1O` the MIC was greater than 6.4 µg/mL (BW25113; after 1 h irradiation at 365 nm).
`Cc1cc(-c2cn[nH]c2-c2cccc(OCc3cccc(C#N)c3)c2)cc(C)n1` has an MIC of 2 µg/mL (broth microdilution; BW25113).
`O=C(N[C@H](CO)[C@H](O)c1ccc([N+](=O)[O-])cc1)C(Cl)Cl` gave an MIC of 4 µg/mL (broth microdilution; ATCC 25922; 5% CO2).
For `CC1(C)S[C@@H]2[C@H](/N=C/N3CCCCCC3)C(=O)N2[C@H]1C(=O)O`, the MIC was 1.3 µM (ATCC 25922).
`CO/N=C(\C(=O)N[C@@H]1C(=O)N2C(C(=O)O)=C(COC(C)=O)CS[C@H]12)c1csc(N)n1` has an MIC of 0.06 µg/mL (broth microdilution; ATCC 25922; ambient air).
The MIC of `Cc1c(CN(C)C(=O)/C=C/c2cnc3c(c2)CC(NC(=O)OC(C)(C)C)C(=O)N3)oc2ccccc12` (centres unmarked) is reported as greater than 32 µg/mL (broth microdilution; AR-0048).
`C[C@H]1COc2c(N3CCN(C)CC3)c(F)cc3c(=O)c(C(=O)O)cn1c23` gave an MIC of 0.078 µM (ATCC 25922).
`N=C(N)c1ccc(OCc2ccccc2COc2ccc(C(=N)N)cc2)cc1` gave an MIC of greater than 200 µg/mL (BW25113; compound alone, vancomycin checkerboard).
